Measurements gathered from unrelated publications.
Every numbered part comes from another study and shows a few of its results, in no order. Changes are numbered by the printed parent chain.
Chain of UniProt P06241 (whole entry, looked up): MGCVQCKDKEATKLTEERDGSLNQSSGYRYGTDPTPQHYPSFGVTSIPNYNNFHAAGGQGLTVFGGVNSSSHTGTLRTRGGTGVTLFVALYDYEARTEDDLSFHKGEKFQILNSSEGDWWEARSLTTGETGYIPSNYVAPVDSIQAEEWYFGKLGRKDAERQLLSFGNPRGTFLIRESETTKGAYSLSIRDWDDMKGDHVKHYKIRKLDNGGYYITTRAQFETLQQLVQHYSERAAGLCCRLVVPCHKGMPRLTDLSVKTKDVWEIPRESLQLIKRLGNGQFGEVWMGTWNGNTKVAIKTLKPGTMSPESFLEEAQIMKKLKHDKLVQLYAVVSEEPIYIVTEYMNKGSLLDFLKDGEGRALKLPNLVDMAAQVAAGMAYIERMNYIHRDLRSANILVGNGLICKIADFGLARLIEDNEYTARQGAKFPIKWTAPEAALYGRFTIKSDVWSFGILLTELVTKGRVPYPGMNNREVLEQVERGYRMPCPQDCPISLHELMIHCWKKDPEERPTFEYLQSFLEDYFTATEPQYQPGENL
Chain of UniProt P00519 (whole entry, unmodified, looked up): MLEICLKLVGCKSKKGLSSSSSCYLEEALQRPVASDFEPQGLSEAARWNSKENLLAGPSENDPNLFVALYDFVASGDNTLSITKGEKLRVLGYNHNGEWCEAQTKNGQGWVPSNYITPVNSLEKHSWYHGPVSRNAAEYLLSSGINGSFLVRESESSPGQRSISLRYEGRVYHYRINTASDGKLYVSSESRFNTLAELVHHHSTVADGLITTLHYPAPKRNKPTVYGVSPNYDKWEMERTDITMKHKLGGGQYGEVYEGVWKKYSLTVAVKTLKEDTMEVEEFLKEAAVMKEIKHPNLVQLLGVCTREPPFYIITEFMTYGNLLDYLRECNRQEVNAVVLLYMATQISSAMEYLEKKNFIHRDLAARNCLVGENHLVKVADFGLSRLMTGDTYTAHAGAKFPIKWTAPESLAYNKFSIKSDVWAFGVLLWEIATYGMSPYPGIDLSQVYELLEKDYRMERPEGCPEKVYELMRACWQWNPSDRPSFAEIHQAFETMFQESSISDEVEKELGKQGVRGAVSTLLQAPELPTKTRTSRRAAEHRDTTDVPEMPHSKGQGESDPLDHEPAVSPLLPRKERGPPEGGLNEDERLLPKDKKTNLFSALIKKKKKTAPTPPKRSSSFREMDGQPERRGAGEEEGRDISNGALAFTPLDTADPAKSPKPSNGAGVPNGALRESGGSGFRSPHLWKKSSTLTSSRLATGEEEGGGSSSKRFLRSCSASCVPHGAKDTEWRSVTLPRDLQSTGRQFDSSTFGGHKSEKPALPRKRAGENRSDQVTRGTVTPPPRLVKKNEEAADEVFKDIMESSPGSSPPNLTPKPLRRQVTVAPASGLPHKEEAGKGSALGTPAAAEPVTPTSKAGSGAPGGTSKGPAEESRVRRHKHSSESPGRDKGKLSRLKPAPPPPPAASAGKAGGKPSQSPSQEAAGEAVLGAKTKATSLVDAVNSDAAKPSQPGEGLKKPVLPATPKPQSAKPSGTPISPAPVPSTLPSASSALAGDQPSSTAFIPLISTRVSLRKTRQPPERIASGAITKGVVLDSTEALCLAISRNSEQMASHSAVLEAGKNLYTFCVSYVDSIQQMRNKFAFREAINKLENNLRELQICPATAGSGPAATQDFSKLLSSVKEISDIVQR
Chain of UniProt Q15418 (whole entry, looked up): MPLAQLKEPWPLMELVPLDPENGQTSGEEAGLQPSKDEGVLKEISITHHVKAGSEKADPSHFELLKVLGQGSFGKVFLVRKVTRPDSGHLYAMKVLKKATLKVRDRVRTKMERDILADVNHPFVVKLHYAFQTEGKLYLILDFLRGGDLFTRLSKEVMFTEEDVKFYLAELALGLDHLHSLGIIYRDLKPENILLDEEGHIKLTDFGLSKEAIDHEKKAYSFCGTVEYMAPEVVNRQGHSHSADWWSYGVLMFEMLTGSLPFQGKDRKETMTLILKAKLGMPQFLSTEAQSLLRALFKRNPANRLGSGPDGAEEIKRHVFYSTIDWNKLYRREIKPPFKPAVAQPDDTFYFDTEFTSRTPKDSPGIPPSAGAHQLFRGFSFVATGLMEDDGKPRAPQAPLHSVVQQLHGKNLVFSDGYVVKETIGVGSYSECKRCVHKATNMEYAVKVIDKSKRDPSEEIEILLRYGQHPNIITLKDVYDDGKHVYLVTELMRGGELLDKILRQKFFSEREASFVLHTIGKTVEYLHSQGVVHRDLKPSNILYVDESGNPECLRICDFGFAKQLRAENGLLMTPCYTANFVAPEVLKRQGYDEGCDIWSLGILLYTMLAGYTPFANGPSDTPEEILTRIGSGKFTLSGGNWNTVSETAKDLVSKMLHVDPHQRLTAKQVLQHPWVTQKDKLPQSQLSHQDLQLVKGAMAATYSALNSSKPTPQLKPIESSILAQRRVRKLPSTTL
Chain of UniProt Q96PN8 (whole entry, looked up): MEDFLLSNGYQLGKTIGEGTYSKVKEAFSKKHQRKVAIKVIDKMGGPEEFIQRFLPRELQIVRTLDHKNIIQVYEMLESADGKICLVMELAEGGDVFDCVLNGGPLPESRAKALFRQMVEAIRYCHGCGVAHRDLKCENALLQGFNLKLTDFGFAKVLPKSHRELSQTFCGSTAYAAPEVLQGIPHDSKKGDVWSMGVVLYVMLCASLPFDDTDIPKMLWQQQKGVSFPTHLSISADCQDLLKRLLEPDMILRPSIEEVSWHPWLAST
Chain of UniProt P46734 (whole entry, looked up): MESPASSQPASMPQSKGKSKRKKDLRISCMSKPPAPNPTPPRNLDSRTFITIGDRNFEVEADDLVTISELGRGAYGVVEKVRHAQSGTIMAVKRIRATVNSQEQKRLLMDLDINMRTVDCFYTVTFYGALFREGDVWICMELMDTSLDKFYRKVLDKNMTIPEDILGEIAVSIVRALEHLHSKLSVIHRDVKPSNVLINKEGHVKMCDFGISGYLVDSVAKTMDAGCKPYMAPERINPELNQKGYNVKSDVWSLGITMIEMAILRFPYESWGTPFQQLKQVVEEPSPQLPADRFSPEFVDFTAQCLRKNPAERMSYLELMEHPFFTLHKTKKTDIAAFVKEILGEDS
Chain of UniProt Q7KZI7 (whole entry, looked up): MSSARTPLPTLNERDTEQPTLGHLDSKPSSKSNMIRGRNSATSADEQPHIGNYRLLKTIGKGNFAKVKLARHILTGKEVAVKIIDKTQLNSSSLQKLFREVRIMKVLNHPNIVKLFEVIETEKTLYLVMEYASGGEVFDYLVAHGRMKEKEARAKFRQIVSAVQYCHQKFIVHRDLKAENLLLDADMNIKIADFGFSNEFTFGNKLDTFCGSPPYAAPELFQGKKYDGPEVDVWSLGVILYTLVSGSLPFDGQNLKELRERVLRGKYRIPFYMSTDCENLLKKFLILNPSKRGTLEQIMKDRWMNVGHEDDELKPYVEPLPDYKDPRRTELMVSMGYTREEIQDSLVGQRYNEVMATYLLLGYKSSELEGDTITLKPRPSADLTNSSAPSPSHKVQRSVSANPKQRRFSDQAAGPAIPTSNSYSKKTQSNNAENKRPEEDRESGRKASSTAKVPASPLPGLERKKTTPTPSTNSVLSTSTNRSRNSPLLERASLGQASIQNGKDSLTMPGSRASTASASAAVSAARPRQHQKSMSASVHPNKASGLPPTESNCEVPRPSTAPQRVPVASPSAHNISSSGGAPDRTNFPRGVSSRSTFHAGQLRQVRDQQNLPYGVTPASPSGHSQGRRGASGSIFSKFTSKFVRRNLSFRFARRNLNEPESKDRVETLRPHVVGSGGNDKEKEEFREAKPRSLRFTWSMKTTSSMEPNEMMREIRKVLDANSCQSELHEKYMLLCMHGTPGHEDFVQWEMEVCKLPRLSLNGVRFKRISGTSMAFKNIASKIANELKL

Block 1 — technique: competition with immobilised ligand; concentration: 1 µM
SMILES: CN(c1ccnc(CNc2nc(Nc3ccc4c(c3)CC(=O)N4)ncc2C(F)(F)F)n1)S(C)(=O)=O
target	effect on	remaining binding [%]
Testis-specific serine/threonine-protein kinase 3 (TSSK3, Homo sapiens, UniProt Q96PN8)	cell-free assay	80
Ribosomal protein S6 kinase alpha-1, N-terminal kinase domain (RPS6KA1, Homo sapiens, UniProt Q15418)	cell-free assay	100
Tyrosine-protein kinase Fyn (FYN, Homo sapiens, UniProt P06241)	cell-free assay	59
Serine/threonine-protein kinase WNK2 (WNK2, Homo sapiens, UniProt Q9Y3S1)	cell-free assay	22
Tyrosine-protein kinase ABL1, phosphorylated (ABL1, Homo sapiens, UniProt P00519, E255K)	binding	34
Dual specificity mitogen-activated protein kinase kinase 3 (MAP2K3, Homo sapiens, UniProt P46734)	cell-free assay	58
Serine/threonine-protein kinase MARK2 (MARK2, Homo sapiens, UniProt Q7KZI7)	cell-free assay	47

Block 2 — technique: protein-binding microarray; form: double-stranded DNA, one strand shown; sample: in vitro; concentration: not given; reading: higher = stronger binding
Target: Myc proto-oncogene protein, bHLH-zipper, MAX partner unstated (MYC, Homo sapiens, UniProt P01106, residues 368-449)
Chain of UniProt P01106 (368-449, looked up): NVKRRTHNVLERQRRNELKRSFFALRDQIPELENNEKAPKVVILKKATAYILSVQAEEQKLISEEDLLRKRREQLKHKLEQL
Notes: k-mer, scored over probes, only values ≥0.25
Strand	E-score
CACGGGGG	0.365
CGTGGTCA	0.419
CACATGAC	0.435
ACACATGA	0.367
ACATGGGA	0.272
AACCACGG	0.251
ATGTGGTG	0.32
CACATGAA	0.295

Block 3 — effect on: enzyme activity; mode: inhibitor; concentration: 0.5 µM; relative to: control
Target: Mitogen-activated protein kinase kinase kinase 20 (MAP3K20, Homo sapiens, UniProt Q9NYL2)
SMILES	remaining activity [%]
CO[C@H]1C[C@@H]2CC[C@@H](C)[C@@](O)(O2)C(=O)C(=O)N2CCCC[C@H]2C(=O)O[C@H]([C@H](C)C[C@@H]2CC[C@@H](O)[C@H](OC)C2)CC(=O)[C@H](C)/C=C(\C)[C@@H](O)[C@@H](OC)C(=O)[C@H](C)C[C@H](C)/C=C/C=C/C=C/1C	103
O=C(O)c1ccc2c3c1cccc3c(=O)n1c3ccccc3nc21	100
O=S(=O)(c1cccc2cnccc12)N1CCCNCC1	101
Cc1nc(-c2ccccc2)c(-c2ccncc2)o1	89
O=C1NC(=O)C(c2cn(CCCO)c3ncccc23)=C1c1cnccn1	96.4
Oc1ccc(-c2nc(-c3ccncc3)c(-c3ccc(F)cc3)[nH]2)cc1	98.8
Cc1cccc(-c2[nH]c(C(C)(C)C)nc2-c2ccc3c(c2)OCO3)n1	97.8
COc1ccc(CNC(=O)Nc2ncc([N+](=O)[O-])s2)cc1	101
O=C(Nc1cccc(Nc2cc(Nc3cccc(C(F)(F)F)c3)ncn2)c1)C1CC1	97.1
Nc1ccc2ncnc(NCCc3ccc(Oc4ccccc4)cc3)c2c1	102
N#CC(C#N)=C(N)/C(C#N)=C/c1ccc(O)cc1	95.7
Nc1ncnc2n[nH]c(Nc3ccc(F)cc3)c12	88
COc1cc2ncnc(Nc3ccc(Oc4ccccc4)cc3)c2cc1OC	95.2
Cn1c2ccccc2c2c3c(c4c5ccccc5n(CCC#N)c4c21)CNC3=O	86.6

Block 4 — target: FOS, bZIP domain (human); technique: DHFR protein complementation; sample: yeast; relative to: wild-type JUN-FOS pair; reading: higher = stronger binding
Notes: single substitutions, most at no-binding floor
Starting sequence: JUN, bZIP domain (human); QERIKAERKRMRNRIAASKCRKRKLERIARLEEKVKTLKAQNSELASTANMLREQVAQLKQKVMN; partner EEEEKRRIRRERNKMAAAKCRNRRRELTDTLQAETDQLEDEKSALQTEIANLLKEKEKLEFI
Substitution	binding fitness
E54I	-0.116 natural log
R30T	0.147 natural log
Q55M	-0.113 natural log
Q41S	-1.16 natural log
E54R	-0.172 natural log
A29S	-0.101 natural log
N42F	-1.31 natural log
K36P	-1.22 natural log

Repeated from above (block 3):
SMILES	remaining activity [%]
Cn1c2ccccc2c2c3c(c4c5ccccc5n(CCC#N)c4c21)CNC3=O	86.6
Cc1cccc(-c2[nH]c(C(C)(C)C)nc2-c2ccc3c(c2)OCO3)n1	97.8
COc1cc2ncnc(Nc3ccc(Oc4ccccc4)cc3)c2cc1OC	95.2
O=C(O)c1ccc2c3c1cccc3c(=O)n1c3ccccc3nc21	100
